Published values pooled from the literature.
Numbers after ± are the reported error. Values after ≈ are worked out from the molar mass of the structure shown.

`COc1ccc(-c2nc(-c3ccccc3OC)[nH]c2-c2ccc(OC)cc2)cc1` gave a worm killing of 0% (Schistosoma mansoni; adult male worms; 50 µM).
For `CC(C)C[C@@H]1NC(=O)[C@H](CCCCN)NC(=O)[C@H](C(C)C)NC(=O)[C@@H]2CCCN2C(=O)[C@@H](Cc2ccc(O)cc2)NC(=O)[C@H](CC(C)C)NC(=O)[C@H](CCCCN)NC(=O)[C@H](C(C)C)NC(=O)[C@H](CCCCN)NC(=O)[C@H](CC(C)C)NC(=O)[C@H](CCCCN)NC(=O)[C@@H]2CCCN2C(=O)[C@@H](Cc2ccc(O)cc2)NC(=O)[C@H](C(C)C)NC(=O)[C@H](CCCCN)NC1=O`, “MIC geometric mean” read 1.1 µg/mL (Gram-positive bacteria; 24 h, 7 strains).
The IC50 of `O=[N+]([O-])c1ccc(/C=N/N=C/c2ccc(Cl)cc2)s1` is reported as 1340 ± 20 nM (Trypanosoma evansi; parasite growth, CellTiter-Glo; Tansui bloodstream form; 72 h).
The regulation factor of `CN[C@H](CC(C)C)C(=O)N[C@H]1C(=O)N[C@@H](CC(N)=O)C(=O)N[C@H]2C(=O)N[C@H]3C(=O)N[C@H](C(=O)N[C@H](C(=O)O)c4cc(O)cc(O)c4-c4cc3ccc4O)[C@H](O)c3ccc(c(Cl)c3)Oc3cc2cc(c3O[C@@H]2O[C@H](CO)[C@@H](O)[C@H](O)[C@H]2O[C@H]2C[C@](C)(NCc3ccc(C(=O)OCCCCCCN(Cc4ccccn4)Cc4ccccn4)cc3)[C@H](O)[C@H](C)O2)Oc2ccc(cc2Cl)[C@H]1O` is reported as 67.3 ± 35.2 (Bacillus subtilis; protein synthesis, refers to: LiaH.1; 168; concentration not given, 10 min, at peak effective concentration; baseline: untreated).
`Cc1ccc(/C=N/N=C/c2ccc([N+](=O)[O-])s2)cc1` gave an IC50 of 5170 ± 1580 nM (Trypanosoma evansi; parasite growth, CellTiter-Glo; Tansui bloodstream form; 72 h).
`Cc1ncc([N+](=O)[O-])n1CCOCc1nnc(SCC(=O)c2ccc(O)cc2)o1`: “inhibition zone diameter” 15 to 20 mm (viridans streptococci; DMSO; 60 µg/mL, 24 h, 37 °C).
With `O=[N+]([O-])c1ccc(/C=N/N=C/c2ccc(OCc3ccccc3)cc2)o1` the IC50 was 620 ± 40 nM (Trypanosoma evansi; parasite growth, CellTiter-Glo; Tansui bloodstream form; 72 h).
Under “geometric mean MIC”, `CC[C@H](C)[C@H](NC(=O)[C@H](CCCCN)NC(=O)[C@H](CC(N)=O)NC(=O)[C@H](Cc1c[nH]c2ccccc12)NC(=O)[C@H](Cc1ccccc1)NC(=O)[C@H](CCCCN)NC(=O)[C@H](CCCNC(=N)N)NC(=O)[C@H](CC(C)C)NC(=O)[C@H](Cc1c[nH]c2ccccc12)NC(=O)[C@H](CCCCN)NC(=O)[C@H](CCCNC(=N)N)NC(=O)[C@H](CC(C)C)NC(=O)CNC(C)=O)C(=O)N[C@@H](CCCCN)C(=O)N[C@@H](CCCNC(=N)N)C(N)=O` is recorded as 3.13 µM (Gram-positive bacteria).
For `Cc1ccc(/C=N/N=C/c2ccc([N+](=O)[O-])o2)cc1`, the IC50 was 5430 ± 1080 nM (Trypanosoma evansi; parasite growth, CellTiter-Glo; Tansui bloodstream form; 72 h).
`CC(C)Sc1cccc(O)c(=O)c1O` has an EC50 of 31 µM (Hepatitis B virus; viral replication, inhibitor; HepDES19).
`CC(C)C[C@@H]1NC(=O)[C@H](CCCCN)NC(=O)[C@H](C(C)C)NC(=O)[C@H](CCCCN)NC(=O)[C@H](CC(C)C)NC(=O)[C@@H]2CCCN2C(=O)[C@@H](Cc2ccc(O)cc2)NC(=O)[C@H](C(C)C)NC(=O)[C@H](CCCCN)NC(=O)[C@H](CCCCN)NC(=O)[C@H](C(C)C)NC(=O)[C@@H]2CCCN2C(=O)[C@@H](Cc2ccc(O)cc2)NC1=O` — result for “MIC geometric mean”: 1.5 µg/mL (Gram-positive bacteria; 24 h, 7 strains).
For `COc1ccc(C(=O)CSc2nnc(COCCn3c([N+](=O)[O-])cnc3C)o2)cc1F`, “inhibition zone diameter” read no less than 20 mm (viridans streptococci; DMSO; 60 µg/mL, 24 h, 37 °C).
`O=C(Nc1ccccc1Nc1ccccc1)c1cccnc1C(F)(F)F` has an inhibition of 33.8% (Botrytis cinerea; microbial growth; 50 µg/mL).
`CC1(C)CC[C@]2(CO)CC[C@]3(C)C(=CC[C@@H]4[C@@]5(C)CCCNC(C)(C)[C@@H]5CC[C@]43C)[C@@H]2C1` gave an EC90 of greater than 1.2 µM (Human alphaherpesvirus 1; cytopathic effect; HFF, E-377).
For `c1ccc(-c2nc(-c3ccc4ccccc4c3)c[nH]2)cc1`, the worm killing was 0% (Schistosoma mansoni; female worms; 5 µM).
The EC50 of `Cc1ccc(Sc2cccc(O)c(=O)c2O)cc1` is reported as 17 µM (Hepatitis B virus; viral replication, inhibitor; HepDES19).
`CC1(C)S[C@@H]2[C@H](NC(=O)[C@H](NC(=O)C3=C(O)C(c4ccccc4F)NC3=O)c3ccccc3)C(=O)N2[C@H]1C(=O)O` (stereo partly drawn) gave an MIC of 25 µg/mL (≈ 44 µM) (Escherichia coli; broth microdilution; BW25113, Mueller-Hinton broth; added: CCCP 50 µg/mL).
`CO[C@H]1/C=C/O[C@@]2(C)Oc3c(C)c(O)c4c(c3C2=O)C2=NC3(CCN(CC(C)C)CC3)NC2=C(NC(=O)/C(C)=C\C=C\[C@H](C)[C@H](O)[C@@H](C)[C@@H](O)[C@@H](C)[C@H](OC(=O)c2cccc(F)c2)[C@@H]1C)C4=O`: “lung bacterial load reduction” 10 fold (Mycobacteroides abscessus subsp. abscessus; K21, NOD SCID mice; oral, 10 mg/kg once daily, 10 days; baseline: vehicle).
With `C=C(C)[C@@H]1CC[C@]2(C(=O)n3ccnc3)CC[C@]3(C)[C@H](CC[C@@H]4[C@@]5(C)CCCNC(C)(C)[C@@H]5CC[C@]43C)[C@@H]12` the EC90 was greater than 6 µM (Human alphaherpesvirus 1; cytopathic effect; HFF, E-377).
With `COc1ccc(S(=O)(=O)NCc2c[nH]nc2-c2cccs2)cc1` the parasitemia was 1.2 ± 0.2% (Plasmodium vivax; reinvasion; 3, human, human red blood cells; 1× EC50, 20 h).
For `O=[N+]([O-])c1ccc(/C=N/N=C/c2ccc(Cl)cc2)o1`, the IC50 was 1780 ± 460 nM (Trypanosoma evansi; parasite growth, CellTiter-Glo; Tansui bloodstream form; 72 h).
`C#CCN1CCc2c3n(c4ccccc24)C(=O)C(=C)CC3(C(=O)OC)C1` (stereo not drawn) gave an inhibition of roughly 10% (Hepatitis B virus; viral replication, inhibitor, qPCR; HePAD38; 5 µM).
Under “MIC geometric mean”, `CC(C)C[C@@H]1NC(=O)[C@H](CCCCN)NC(=O)[C@@H]2CCCN2C(=O)[C@@H](Cc2ccc(O)cc2)NC(=O)[C@H](CCCCN)NC(=O)[C@H](C(C)C)NC(=O)[C@H](CC(C)C)NC(=O)[C@H](CCCCN)NC(=O)[C@H](C(C)C)NC(=O)[C@@H]2CCCN2C(=O)[C@@H](Cc2ccc(O)cc2)NC(=O)[C@H](CC(C)C)NC(=O)[C@H](CCCCN)NC(=O)[C@H](C(C)C)NC(=O)[C@H](CCCCN)NC1=O` is recorded as 3 µg/mL (Gram-positive bacteria; 24 h, 7 strains).
`CC(C)Sc1ccc(SC(C)C)c(O)c(=O)c1O` gave an MIC80 of 1.5 µM (≈ 0.43 µg/mL) (Cryptococcus neoformans; microbial growth, broth dilution; 13 h).
`O=[N+]([O-])c1ccc(/C=N/N=C/c2ccc([N+](=O)[O-])s2)cc1` gave an IC50 of 1410 ± 200 nM (Trypanosoma evansi; parasite growth, CellTiter-Glo; Tansui bloodstream form; 72 h).
`CC[C@H](C)[C@H](NC(=O)[C@H](CCCCN)NC(=O)[C@H](CO)NC(=O)[C@H](CC(C)C)NC(=O)[C@H](CCC(=O)O)NC(=O)[C@@H](NC(=O)[C@H](CCC(=O)O)NC(=O)[C@H](CC(N)=O)NC(=O)[C@H](CC(C)C)NC(=O)[C@@H](N)CCCCN)C(C)C)C(=O)N[C@@H](CO)C(=O)NCC(=O)NCC(N)=O` — result for “reduction of proinflammatory cytokines”: less than 20% (Clostridioides difficile; Caco-2; concentration not given).
With `Fc1ccc2c(c1)c1nc3ccc(Br)cc3c-1cn2Cc1cn(-c2ccccc2I)nn1` the fold change was 3.9 (Giardia duodenalis; UHPLC-Q-TOF-MS, refers to: PC(15:0/0:0); trophozoites; IC50, 0.1407 h; baseline: 0.25% DMSO).
`O=c1[nH]cc(C(c2cccc(C(F)(F)F)c2)c2c[nH]c(=O)[nH]c2=O)c(=O)[nH]1` has an inhibition of 74% (Human immunodeficiency virus 1; viral replication, inhibitor, ELISA; 1 µg/mL).
`Oc1ccccc1/C=N/NC(=S)Nc1cc(C(F)(F)F)cc(C(F)(F)F)c1` — result for “MIC fold improvement”: 256 fold (Candidozyma auris; broth microdilution; 922; baseline: hit compound).
`CN(Cc1cc(C2CC2)on1)C(=O)c1cccc(-c2ccc3c(c2)CCO3)c1` gave an FIC index of 0.5 (Cryptococcus neoformans; H99; added: fluconazole).
Under “infected cells reduction”, `CC(C)C[C@H](NC(=O)OCc1ccccc1)C(=O)N[C@@H](C[C@@H]1CCNC1=O)C(O)S(=O)(=O)[O-].[Na+]` (stereo partly drawn) is recorded as greater than 50% (Coxsackievirus A10; immunofluorescence; RD; 1.1 µM, 8 h).
With `CS(=O)(=O)c1cccc(O)c(=O)c1O` the EC50 was 0.55 µM (Hepatitis B virus; viral replication, inhibitor; HepDES19).
Under “isolates with restored meropenem susceptibility”, `NC(CNC(CNC(CC(=O)O)C(=O)O)C(=O)O)C(=O)O` (stereo not drawn) is recorded as 90% (Enterobacteriaceae, Acinetobacter, Pseudomonas; inhibitor; VIM-positive clinical isolates; 8 µg/mL, added: meropenem 2 µg/mL).
`CC[C@@H](C)[C@@H](NC(=O)[C@@H](C)NC(=O)[C@@H](CCCCN)NC(=O)[C@@H](CC(C)C)NC(=O)[C@@H](C)NC(=O)[C@H](NC(=O)[C@@H](Cc1c[nH]cn1)NC(=O)[C@@H](CC(C)C)NC(=O)[C@H](NC(=O)[C@H](NC(=O)[C@@H](CCCCN)NC(=O)[C@H](NC(=O)[C@@H](C)NC(=O)[C@@H](CO)NC(=O)[C@@H](CCCCN)NC(=O)[C@@H](Cc1ccccc1)NC(=O)[C@H](NC(=O)[C@@H](CCCCN)NC(=O)[C@@H](CC(C)C)NC(=O)[C@@H](Cc1ccccc1)NC(=O)[C@@H](CO)NC(=O)[C@@H](CCCCN)NC(=O)[C@@H](Cc1c[nH]c2ccccc12)NC(=O)[C@@H](CCCCN)NC(C)=O)[C@H](C)O)C(C)C)[C@H](C)O)C(C)C)[C@H](C)O)C(=O)N[C@H](CO)C(=O)N[C@H](CO)C(N)=O` — result for “MIC geometric mean”: 0.7 µM (Acinetobacter baumannii; 11 isolates; 24 h, 37 °C).
`CC[C@H](C)[C@H](NC(=O)[C@H](CCCN)NC(=O)[C@H](CC(N)=O)NC(=O)[C@H](CC(C)C)NC(=O)[C@H](Cc1ccccc1)NC(=O)[C@H](CCCN)NC(=O)[C@H](CCCCNC(=N)N)NC(=O)[C@H](CC(C)C)NC(=O)[C@H](CC(C)C)NC(=O)[C@H](CCCN)NC(=O)[C@H](CCCCNC(=N)N)NC(=O)[C@H](CC(C)C)NC(=O)CNC(C)=O)C(=O)N[C@@H](CCCN)C(=O)N[C@@H](CCCCNC(=N)N)C(N)=O` — result for “geometric mean MIC”: 3.13 µM (Gram-positive bacteria).
With `CCCCCCSc1ccc(SCCCCCC)c(O)c(=O)c1O` the EC50 was 11 µM (Hepatitis B virus; viral replication, inhibitor; HepDES19).
Under IgM level, `CC[C@H](C)[C@H](NC(=O)[C@H](CC(C)C)NC(=O)[C@@H](N)CS)C(=O)N[C@@H](CCC(=O)O)C(=O)N[C@@H](Cc1ccc(O)cc1)C(=O)NCC(=O)NCC(=O)N[C@@H](C)C(=O)N[C@@H](CC(=O)O)C(=O)N[C@@H](Cc1ccc(O)cc1)C(=O)N[C@@H](CCCCN)C(=O)N[C@H](C(=O)N[C@H](C(=O)N[C@@H](CC(N)=O)C(=O)N[C@@H](CC(C)C)C(=O)N[C@@H](CCCCN)C(=O)O)[C@@H](C)CC)[C@@H](C)O` is recorded as “increased” (infectious bursal disease virus; ELISA, refers to: secreted IgM; DT40 cells, IBDV-infected, culture supernatant; 50 to 100 nM, 12 h; baseline: IBDV-infected untreated).
For `O=c1c(O)cccc(Sc2ccccc2)c1O`, the EC50 was 47 µM (Hepatitis B virus; viral replication, inhibitor; HepDES19).
`NC(=NO)NCCC[C@H](N)C(=O)O` — result for viability: “no effect” (Schistosoma mansoni; schistosomula; 100 µM, 72 h, host cell coculture).

Repeated from above:
`CN(Cc1cc(C2CC2)on1)C(=O)c1cccc(-c2ccc3c(c2)CCO3)c1` gave an FIC index of 0.5 (Cryptococcus neoformans; H99; added: fluconazole).
Under “infected cells reduction”, `CC(C)C[C@H](NC(=O)OCc1ccccc1)C(=O)N[C@@H](C[C@@H]1CCNC1=O)C(O)S(=O)(=O)[O-].[Na+]` (stereo partly drawn) is recorded as greater than 50% (Coxsackievirus A10; immunofluorescence; RD; 1.1 µM, 8 h).
With `CS(=O)(=O)c1cccc(O)c(=O)c1O` the EC50 was 0.55 µM (Hepatitis B virus; viral replication, inhibitor; HepDES19).
Under “isolates with restored meropenem susceptibility”, `NC(CNC(CNC(CC(=O)O)C(=O)O)C(=O)O)C(=O)O` (stereo not drawn) is recorded as 90% (Enterobacteriaceae, Acinetobacter, Pseudomonas; inhibitor; VIM-positive clinical isolates; 8 µg/mL, added: meropenem 2 µg/mL).
